Measurements from different studies.
Numbers after ± are the reported error.
SRC: Proto-oncogene tyrosine-protein kinase Src (SRC, Homo sapiens, UniProt P12931)

SMILES = CC(C)(O)Cn1nc(-c2ccc3nc(OC(F)F)ccc3c2)c2c(N)ncnc21; target = SRC; test = enzyme activity, inhibitor; endpoint = IC50; value = > 10000 nM
SMILES = N=C(N)NCCC[C@@H]1NC(=O)[C@H](Cc2c[nH]c3ccccc23)NC(=O)[C@H](CCCNC(=N)N)NC(=O)[C@H](Cc2c[nH]c3ccccc23)NC(=O)[C@H](CCCNC(=N)N)NC(=O)[C@H](Cc2c[nH]c3ccccc23)NC(=O)[C@H](CCCNC(=N)N)NC(=O)[C@H](Cc2c[nH]c3ccccc23)NC(=O)[C@H](CCCNC(=N)N)NC(=O)[C@H](Cc2c[nH]c3ccccc23)NC(=O)[C@H](CCCNC(=N)N)NC(=O)[C@H](Cc2c[nH]c3ccccc23)NC(=O)[C@H](CCCNC(=N)N)NC(=O)[C@H](Cc2c[nH]c3ccccc23)NC1=O; target = SRC; test = enzyme activity, inhibitor, radiometric; endpoint = IC50; value = 350 nM
SMILES = Cc1nc(Nc2ncc(C(=O)Nc3c(C)cccc3Cl)s2)cc(N2CCN(CCOC(=O)[C@@H](N)CCCNC(=N)N)CC2)n1; target = SRC; test = enzyme activity, inhibitor; endpoint = IC50; value = < 0.25 nM
SMILES = CC(=O)N[C@@H](CCNC(=O)[C@H](CCCNC(=O)c1cnccn1)NC(=O)[C@H](Cc1ccco1)NC(=O)[C@H](CC1CC1)NC(C)=O)C(N)=O; target = SRC; test = Z′-LYTE; conditions = with: ATP at Km; endpoint = IC50; value = > 100000 nM
SMILES = Cc1nc(Nc2ncc(C(=O)Nc3c(C)cccc3Cl)s2)cc(N2CCN(CCOC(=O)[C@@H](N)CS)CC2)n1; target = SRC; test = enzyme activity, inhibitor; endpoint = IC50; value = 6.6 nM
SMILES = CC(C)(O)Cn1cc(-c2ccc3nc(OC(F)F)ccc3c2)c2c(N)ncnc21; target = SRC; test = enzyme activity, inhibitor; endpoint = IC50; value = > 10000 nM
SMILES = N=C(N)NCCC[C@@H]1NC(=O)[C@H](Cc2c[nH]c3ccccc23)NC(=O)[C@H](CCCNC(=N)N)NC(=O)[C@H](Cc2c[nH]c3ccccc23)NC(=O)[C@H](CCCNC(=N)N)NC(=O)[C@H](Cc2c[nH]c3ccccc23)NC(=O)[C@H](CCCNC(=N)N)NC(=O)[C@H](Cc2c[nH]c3ccccc23)NC(=O)[C@H](CCCNC(=N)N)NC(=O)[C@H](Cc2c[nH]c3ccccc23)NC(=O)[C@H](CCCNC(=N)N)NC(=O)[C@H](Cc2c[nH]c3ccccc23)NC(=O)[C@H](CCCNC(=N)N)NC(=O)[C@H](Cc2c[nH]c3ccccc23)NC(=O)[C@H](CCCNC(=N)N)NC(=O)[C@H](Cc2c[nH]c3ccccc23)NC(=O)[C@H](CCCNC(=N)N)NC(=O)[C@H](Cc2c[nH]c3ccccc23)NC1=O; target = SRC; test = enzyme activity, inhibitor, radiometric; endpoint = IC50; value = 210 nM
SMILES = C#Cc1cccc(Nc2ncnc3cc(OC)c(OCCCN4CCOCC4)cc23)c1; target = SRC; test = enzyme activity, inhibitor; conditions = 30 min, with: ATP 80.8 µM; endpoint = IC50; value = 5210 ± 386 nM
SMILES = Cc1ccc2oc(-c3c4c(N)n[nH]c(=O)c4nn3-c3ccc(NC(=O)/C=C/CN(C)C)cc3)c(C)c2c1; target = SRC; test = enzyme activity, inhibitor, ELISA; endpoint = IC50; value = > 1000 nM
SMILES = CCCCCCCCCC(=O)OCCN1CCN(c2cc(Nc3ncc(C(=O)Nc4c(C)cccc4Cl)s3)nc(C)n2)CC1; target = SRC; test = enzyme activity, inhibitor; endpoint = IC50; value = 35 nM
SMILES = C=CC(=O)N1CCc2ccc(-n3c(=O)ccc4cnc5ccc(-c6cnn(C)c6)cc5c43)cc21; target = SRC; test = enzyme activity, inhibitor; endpoint = IC50; value = > 10000 nM
SMILES = COc1ccc2c(c1)C(=C1Nc3ccccc3C1=NOCC(O)CO)C(=O)N2 (stereo not drawn); target = SRC; test = enzyme activity, inhibitor, radiometric; endpoint = IC50; value = 10.7 nM
SMILES = CSCC[C@H](NC(=O)[C@H](CS)NC(=O)[C@H](CC(=O)O)NC(=O)CN)C(=O)N[C@@H](Cc1ccc(OP(=O)(O)O)cc1)C(=O)N[C@@H](C)C(=O)N1CCC[C@H]1C(=O)N[C@@H](CC(C)C)C(=O)N[C@@H](CC(C)C)C(=O)NCC(=O)N[C@H](C(=O)N1CCC[C@H]1C(=O)N[C@@H](CC(=O)O)C(=O)O)C(C)C; target = Proto-oncogene tyrosine-protein kinase Src, SH2 (SRC, Homo sapiens, UniProt P12931); test = binding, FP; endpoint = Kd; value = 1850 nM
SMILES = CNC(=O)C1CCN(c2cc(C)c(F)cc2NC(=O)c2ccc(-c3cc(O)ccc3C)c(C)c2)CC1; target = SRC; test = cell-free assay, TR-FRET; endpoint = Ki; value = 11.9 nM
SMILES = Cc1nc(Nc2ncc(C(=O)Nc3c(C)cccc3Cl)s2)cc(N2CCN(CCOC(=O)CCCCCCCCCCN)CC2)n1; target = SRC; test = enzyme activity, inhibitor; endpoint = IC50; value = 1 nM

A few entries again:
SMILES = Cc1nc(Nc2ncc(C(=O)Nc3c(C)cccc3Cl)s2)cc(N2CCN(CCOC(=O)[C@@H](N)CS)CC2)n1; target = SRC; test = enzyme activity, inhibitor; endpoint = IC50; value = 6.6 nM
SMILES = CC(C)(O)Cn1cc(-c2ccc3nc(OC(F)F)ccc3c2)c2c(N)ncnc21; target = SRC; test = enzyme activity, inhibitor; endpoint = IC50; value = > 10000 nM
